Experimental data of several laboratories.
Compare with care: the assays were run in different laboratories.
LTK: Leukocyte tyrosine kinase receptor (LTK, Homo sapiens, UniProt P29376)
TDP1: Tyrosyl-DNA phosphodiesterase 1 (TDP1, Homo sapiens, UniProt Q9NUW8)
Chain of UniProt Q9NUW8 (whole entry, looked up): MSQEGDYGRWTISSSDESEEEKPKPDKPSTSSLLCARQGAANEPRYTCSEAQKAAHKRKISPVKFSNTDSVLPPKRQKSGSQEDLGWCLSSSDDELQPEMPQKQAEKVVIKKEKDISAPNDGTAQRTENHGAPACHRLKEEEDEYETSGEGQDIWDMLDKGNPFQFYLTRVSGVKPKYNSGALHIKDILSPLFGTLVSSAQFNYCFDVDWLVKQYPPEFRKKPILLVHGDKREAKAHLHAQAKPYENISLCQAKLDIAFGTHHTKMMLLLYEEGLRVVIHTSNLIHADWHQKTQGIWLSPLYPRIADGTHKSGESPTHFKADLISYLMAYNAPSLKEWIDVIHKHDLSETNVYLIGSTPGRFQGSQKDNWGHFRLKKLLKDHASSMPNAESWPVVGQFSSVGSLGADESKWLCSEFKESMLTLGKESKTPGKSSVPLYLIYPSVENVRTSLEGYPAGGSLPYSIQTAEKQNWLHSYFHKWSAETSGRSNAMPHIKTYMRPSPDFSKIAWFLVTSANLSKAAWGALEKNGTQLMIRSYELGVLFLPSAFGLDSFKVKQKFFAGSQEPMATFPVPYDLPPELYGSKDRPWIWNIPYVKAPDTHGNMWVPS

SMILES | target | assay | conditions | scale | measurement | value
COc1cc(Nc2nccc(-c3cnn4nc(OC)ccc34)n2)cc(C(F)(F)F)c1 | LTK | binding, competition with immobilised ligand | 1 µM | – | remaining binding | 83%
O=C(O)c1ccc(Nc2c(-c3ccccc3)nc3ccc(CON=Cc4ccccc4OCc4nnsc4Cl)cn23)cc1 (mixture of isomers) | TDP1 | enzyme activity, inhibitor | 100 µM, unpurified compound | – | inhibition | 33.9%
CC(C)=CC1OC(C)(C)C2C=C3C(=O)C(Cl)=CC(O)C3C3C(O)C4OC4C(=O)C132 (stereo not shown) | LTK | cell-free assay, competition with immobilised ligand | 10 µM | – | remaining binding | 94%
CCN1CCN(Cc2ccc(C(=O)Nc3ccc(C)c(NCc4cnc5[nH]ccc5c4OC)c3)cc2C(F)(F)F)CC1 | LTK | binding, competition with immobilised ligand | 1 µM | – | remaining binding | 74%
C=CC(=O)N1CCc2ccc(-n3c(=O)ccc4cnc5ccc(-c6cnn(C)c6)cc5c43)cc21 | LTK | KINOMEscan | 1 µM | reference: DMSO control | remaining binding | 100%
C=CC(=O)N1CCCC(n2c(=O)c3ncccc3n(Cc3ccc(Oc4ccccc4)cc3)c2=O)C1 (stereo not shown) | LTK | cell-free assay, competition with immobilised ligand | 1 µM | – | remaining binding | 100%
CNC1C[S+]2CC[S+]3CC[S+](C1)[Ru-4]321([N]=C=S)[n]2c3ccc(OC)cc3c3c4c(c5cc(F)c[n+]1c5c32)C(=O)NC4=O (stereo not shown) | LTK | KinomeScan | 0.1 µM | reference: untreated | remaining binding | 100%
NC(=O)[C@@H](O)C[C@H]1CCc2sc3ncnc(O[C@H]4CC[C@H](N5CCOCC5)CC4)c3c21 | LTK | enzyme activity, inhibitor | 10 µM | – | inhibition | 19%
C=CC(=O)Nc1cccc(-c2cnc3[nH]cc(C(=O)NC(C)(C)C)c3n2)c1 | LTK | enzyme activity, inhibitor | 0.1 µM | – | inhibition | 3%
Cc1cnc2nc1Nc1cccc(c1)COC/C=C/COCc1cc(ccc1OCCN1CCOCC1)N2 | LTK | binding | 0.1 µM | – | remaining binding | 100%
COc1c(Cl)cccc1Nc1c(-c2ccncc2C#C[C@@]2(C)CCCN2C(=O)/C=C/CN(C)C)[nH]c2c1C(=O)NCC2 | LTK | cell-free assay, competition with immobilised ligand | 3 µM | – | remaining binding | 100%
O=C(O)c1ccc(Nc2c(-c3ccc(CON=Cc4ccccc4)cc3)nc3cc(-c4ccccc4)ccn23)cc1 | TDP1 | enzyme activity, inhibitor | 100 µM, unpurified compound | – | inhibition | 22.4%
O=C(Nc1ccc(Oc2ncnc3[nH]cc(-c4ccccc4)c23)c(F)c1)c1c2n(n(-c3cc(F)ccc3F)c1=O)CCCC2 | LTK | enzyme activity, inhibitor | 0.5 µM | – | inhibition | -8%
COCC12C(=O)NC3C4(C(OC)CC1O)C1CC5(O)C(OC)C(O)C(OC(C)=O)(C1C5OC(=O)c1ccccc1)C3(O)C(OC)C24 (stereo not shown) | LTK | kinase activity, inhibitor, ProQinase kinase profiling | 25 µM | reference: control | remaining activity | 91%
Cc1cccc(O[C@H]2CCC[C@@H](C(C)CNCc3ccncc3)C2)c1 (relative stereo) | LTK | cell-free assay | 10 µM | – | inhibition | -3%
CCn1cc(C(=O)O)c(=O)c2c(N)c(F)c(NC3CCCCC3)cc21 | LTK | kinase activity | 0.1 µM, with: ATP at Km | – | inhibition | 13.2%

For quick reference, copied from above:
SMILES | target | assay | conditions | scale | measurement | value
CCn1cc(C(=O)O)c(=O)c2c(N)c(F)c(NC3CCCCC3)cc21 | LTK | kinase activity | 0.1 µM, with: ATP at Km | – | inhibition | 13.2%
CCN1CCN(Cc2ccc(C(=O)Nc3ccc(C)c(NCc4cnc5[nH]ccc5c4OC)c3)cc2C(F)(F)F)CC1 | LTK | binding, competition with immobilised ligand | 1 µM | – | remaining binding | 74%
